Measurements pooled from the literature.
Lines come from different studies, so protocols differ. ± gives the spread as reported.

SMILES | assay | test system | conditions | scale | measurement | value
COc1cc(NC(=O)C(=O)c2c(C)n(Cc3ccc(Cl)cc3)c3ccc(C)cc23)ccn1 | – | cynomolgus monkey, plasma | oral, 10 mg/kg | – | Cmax | 517 ng/mL
CCCC[C@H]1C(=O)N(C)[C@@H](CCCC)C(=O)N[C@@H](CCCNC(=O)CN2CCN(CC(=O)O)CCN(CC(=O)O)CCN(CC(=O)O)CC2)C(=O)N[C@H](C(=O)NCC(N)=O)CSCC(=O)N[C@@H](Cc2ccc(O)cc2)C(=O)N(C)[C@@H](C)C(=O)N[C@@H](CC(N)=O)C(=O)N2CCC[C@H]2C(=O)N[C@@H](Cc2c[nH]cn2)C(=O)N[C@@H](CC(C)C)C(=O)N(C)CC(=O)N[C@@H](Cc2c[nH]c3ccccc23)C(=O)N[C@@H](CO)C(=O)N[C@@H](Cc2c[nH]c3ccccc23)C(=O)N1C [gallium-68 labelled] | – | NOD/SCID mice, CHO-hPD-L1 xenograft, tumour over blood | iv, dose not given, 60 min | reference: tumour over blood | tissue-to-tissue ratio | 1.66 ± 0.36
CCCCCCCCCCCCC(=O)O.O=C1CCCC2C3CCCN4CCCC(CN12)C34 (centres unmarked) | pyrene fluorescence | water | concentration not given, 298.15 K | – | critical micelle concentration | 0.00337 mol/kg
[2H]C([2H])([2H])C([2H])([2H])C([2H])([2H])OC(C(=O)OC1CCNCC1)(c1ccccc1)c1ccccc1 | measured: nasopharyngitis | healthy Japanese male | oral, 12 mg, 16 days, multiple ascending dose | – | adverse drug reactions | 0%
COc1ccc(NC(=O)Cn2c(=O)c3ccccc3n(CC(=O)Nc3cc([125I])c(OC)cc3OC)c2=O)cc1 | – | rat, liver | intravenous, 30 min | – | tracer uptake | 0.36 %ID/g
COc1ccc2c3c(c4cc(OC)c(OC)cc4c2c1)CN1CCCCC1C3 (centres unmarked) | – | swine cells | 24 (unit not given) | – | CC50 | 41.9 ± 6.92 µM
O=C(c1ccc(F)cc1)C1CCN(C2Cc3c(cccc3OCC[18F])CC2O)CC1 (single isomer, unassigned; (-)) | – | Sprague-Dawley rat, male, liver | intravenous, dose not given, 5 min | – | tissue uptake | 1.06 ± 0.121 %ID/g
O=c1cc(-c2ccccc2)oc2c(Br)c(O)c(O)c(O)c12 | – | C57BL/6 mouse, plasma | intravenous, 10 mg/kg | – | time to fall to EC99 | ~1 h
CN(C)C(CNC(=O)Nc1cc(C(F)(F)F)ccc1N1CCOCC1)c1ccncc1 (centres unmarked) | – | mouse, serum | intraperitoneal, 180 mg/kg single dose | – | serum iron | 124 µg/dL
CCNc1cc2[o+]c3cc(NCC)c(C)cc3c(-c3ccccc3C(=O)OCCOCC[18F])c2cc1C | – | rat, spleen | 15 min | – | tissue uptake | 3.16 ± 1.3 %ID/g
CC(C)[C@@H]1NC(=O)[C@H](Cc2ccccc2)NC(=O)[C@H](Cc2ccc(O)cc2)NC(=O)CCSSC[C@@H](C(=O)N2CCC[C@H]2C(=O)N[C@H](CCCNC(=N)N)C(=O)NCC(N)=O)NC(=O)[C@H](CCC(N)=O)NC1=O | – | Wistar rat, blood | intravenous, 1 µg/kg single dose, 72 h | – | ALT | 20.6 ± 2.7 IU/L
